{"data": "Measurements pooled from the literature", "note": "Every numbered part comes from another study and shows a few of its results, in no order. Changes are numbered by the printed parent chain."}
{"data": "Block 1", "target": "Histone acetyltransferase KAT6A, both winged helices, GST fusion (KAT6A, Homo sapiens, UniProt Q92794, residues 1-181)", "method": "protein binding microarray", "molecule type": "double-stranded DNA, one strand shown", "medium": "in vitro", "concentration": "not given", "notes": "8-mer, flanks averaged, mean of 2 arrays, mostly near background", "relative to": "not given", "reading": "higher = stronger binding", "Residues (chain)": "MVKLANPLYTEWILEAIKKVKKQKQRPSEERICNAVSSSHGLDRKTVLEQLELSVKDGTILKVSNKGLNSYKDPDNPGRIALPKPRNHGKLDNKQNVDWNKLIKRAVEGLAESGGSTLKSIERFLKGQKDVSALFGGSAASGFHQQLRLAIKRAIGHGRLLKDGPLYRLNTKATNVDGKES"}
{"Oligonucleotide": "GTGGACCA", "E-score": -0.168}
{"Oligonucleotide": "GCGGCGAA", "E-score": 0.248}
{"Oligonucleotide": "AAGGGTCG", "E-score": 0.124}
{"Oligonucleotide": "CTTGCACA", "E-score": -0.184}
{"Oligonucleotide": "GTATCCAC", "E-score": -0.0635}
{"Oligonucleotide": "CCCTGTGC", "E-score": 0.0351}
{"Oligonucleotide": "CTACATAA", "E-score": -0.185}
{"data": "Block 2", "target": "Fragile X messenger ribonucleoprotein 1, C-terminal low-complexity region (Fmr1, Mus musculus, UniProt P35922)", "method": "RNA Bind-n-Seq", "molecule type": "RNA", "medium": "in vitro", "concentration": "200 nM", "notes": "whole 134-nt RNA, ends assumed", "with": "150 mM LiCl", "relative to": "input library", "reading": "higher = stronger binding", "each molecule": "7-deaza-guanosine replaces G", "all sequences stand within": "GGGAGUUCUACAGUCCGACGAUC … UGGAAUUCUCGGGUGUCAAGG"}
{"Oligonucleotide": "AGUCCUGUGCUACACAUCGUAUGUACCGAAUCGGGGAAAAGGAAAAGGGAAAAGGGGAAAGUAUUAUGUUACGCCGUUCGGAUCUGCACU", "log2 enrichment": -0.513}
{"Oligonucleotide": "AGUCCUGUGCUACACAUCGUAUGUACCGAAUCGGGGUGGGGUGGGGAAAAAAAGGGGAAAGUAUUAUGUUACGCCGUUCGGAUCUGCACU", "log2 enrichment": -0.428}
{"Oligonucleotide": "UGGGAGGUGGAUUUUGUUUAUUUUUUUAGCUCAUUUCCAGGGGUGGGAAUUUUUUUUUAAUAUGUGUCAUGAAAAAAGUUGUUUUUGAAA", "log2 enrichment": -0.148}
{"Oligonucleotide": "UGCAGUCGAGCCAGCACCUGUUUCUGGACCUGCCUAAGGUAAGUGAGCUUUUCUCUCAACCUAGUUUUCAGGAGGCCUCUUCUGUCCCCU", "log2 enrichment": 0.0639}
{"Oligonucleotide": "AAGUCCUGUGCUACACAUCGUAUGUACCGAAUCGGGGCCCCGGCCCCGGCCCCGGGGAAAGUAUUAUGUUACGCCGUUCGGAUCUGCACU", "log2 enrichment": -2.17}
{"data": "Block 3", "target": "CCNF, cyclin fold, Cln2 fusion (human)", "method": "yeast growth competition, sequencing", "medium": "yeast", "notes": "strong parent motif", "relative to": "not given", "reading": "higher = stronger binding", "parent": "CDC6 docking peptide (human); TLKGRRLVFDNQL"}
{"Change": "TRKGRRLVFDNQL [L2R]", "normalised enrichment score": 8.53}
{"Change": "TLKGRCLVFDNQL [R6C]", "normalised enrichment score": 7.12}
{"Change": "TLKGRRLVFDNEL [Q12E]", "normalised enrichment score": 9.08}
{"Change": "TLKGRRLVFWNQL [D10W]", "normalised enrichment score": 8.19}
{"Change": "TLKSRRLVFDNQL [G4S]", "normalised enrichment score": 4.61}
{"data": "Further values, each from its own experiment"}
{"Molecule": "PhoQ, residues 284 288 289 292 302 303 NSMLDC", "target": "PhoP, residues 12 14 15 18 19 AGCRL (Escherichia coli, UniProt P23836)", "test": "Sort-seq, measured: YFP reporter", "test system": "E. coli", "setting": "PhoQ-PhoP variant library, with: 10 µM Mg2+", "scale": "relative to: high Mg2+ state, higher = stronger signaling", "measurement": "fold induction", "result": 17.6}
{"note": "Repeated from above (block 1):"}
{"Oligonucleotide": "GTATCCAC", "E-score": -0.0635}
